Published values gathered from unrelated publications.
Compare with care: the assays were run in different laboratories. ± gives the spread as reported. ≈ marks a conversion by molar mass, not a printed value.
BCHE: Cholinesterase (BCHE, Homo sapiens, UniProt P06276)
Sequence of UniProt P06276 (whole entry, looked up): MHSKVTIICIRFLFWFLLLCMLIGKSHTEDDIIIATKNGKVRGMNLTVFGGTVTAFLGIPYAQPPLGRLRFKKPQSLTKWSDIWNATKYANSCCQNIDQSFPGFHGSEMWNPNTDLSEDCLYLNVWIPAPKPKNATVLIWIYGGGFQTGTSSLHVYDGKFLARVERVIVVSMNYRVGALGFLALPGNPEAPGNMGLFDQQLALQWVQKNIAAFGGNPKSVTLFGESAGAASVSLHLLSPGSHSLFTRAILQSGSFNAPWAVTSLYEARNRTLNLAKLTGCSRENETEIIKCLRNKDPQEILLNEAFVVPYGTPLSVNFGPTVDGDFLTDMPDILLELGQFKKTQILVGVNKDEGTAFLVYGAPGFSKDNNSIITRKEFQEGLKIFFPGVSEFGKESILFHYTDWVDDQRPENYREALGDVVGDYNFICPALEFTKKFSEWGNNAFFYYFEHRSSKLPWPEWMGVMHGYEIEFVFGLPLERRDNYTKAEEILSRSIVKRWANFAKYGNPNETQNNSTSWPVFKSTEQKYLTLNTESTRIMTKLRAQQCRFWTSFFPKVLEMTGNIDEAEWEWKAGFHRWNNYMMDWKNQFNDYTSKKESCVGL
Sequence of UniProt Q15759 (whole entry, looked up): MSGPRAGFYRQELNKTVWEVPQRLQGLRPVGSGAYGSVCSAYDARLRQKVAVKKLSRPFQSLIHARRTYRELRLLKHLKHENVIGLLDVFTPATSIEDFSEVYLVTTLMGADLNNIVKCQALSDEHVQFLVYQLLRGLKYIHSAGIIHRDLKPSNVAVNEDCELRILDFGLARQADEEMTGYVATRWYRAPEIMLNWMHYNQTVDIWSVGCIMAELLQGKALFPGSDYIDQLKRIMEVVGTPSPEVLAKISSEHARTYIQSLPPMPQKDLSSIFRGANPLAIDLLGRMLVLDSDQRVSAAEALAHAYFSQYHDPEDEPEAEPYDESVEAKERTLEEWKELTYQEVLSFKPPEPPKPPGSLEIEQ
Sequence of UniProt P35968 (whole entry, looked up): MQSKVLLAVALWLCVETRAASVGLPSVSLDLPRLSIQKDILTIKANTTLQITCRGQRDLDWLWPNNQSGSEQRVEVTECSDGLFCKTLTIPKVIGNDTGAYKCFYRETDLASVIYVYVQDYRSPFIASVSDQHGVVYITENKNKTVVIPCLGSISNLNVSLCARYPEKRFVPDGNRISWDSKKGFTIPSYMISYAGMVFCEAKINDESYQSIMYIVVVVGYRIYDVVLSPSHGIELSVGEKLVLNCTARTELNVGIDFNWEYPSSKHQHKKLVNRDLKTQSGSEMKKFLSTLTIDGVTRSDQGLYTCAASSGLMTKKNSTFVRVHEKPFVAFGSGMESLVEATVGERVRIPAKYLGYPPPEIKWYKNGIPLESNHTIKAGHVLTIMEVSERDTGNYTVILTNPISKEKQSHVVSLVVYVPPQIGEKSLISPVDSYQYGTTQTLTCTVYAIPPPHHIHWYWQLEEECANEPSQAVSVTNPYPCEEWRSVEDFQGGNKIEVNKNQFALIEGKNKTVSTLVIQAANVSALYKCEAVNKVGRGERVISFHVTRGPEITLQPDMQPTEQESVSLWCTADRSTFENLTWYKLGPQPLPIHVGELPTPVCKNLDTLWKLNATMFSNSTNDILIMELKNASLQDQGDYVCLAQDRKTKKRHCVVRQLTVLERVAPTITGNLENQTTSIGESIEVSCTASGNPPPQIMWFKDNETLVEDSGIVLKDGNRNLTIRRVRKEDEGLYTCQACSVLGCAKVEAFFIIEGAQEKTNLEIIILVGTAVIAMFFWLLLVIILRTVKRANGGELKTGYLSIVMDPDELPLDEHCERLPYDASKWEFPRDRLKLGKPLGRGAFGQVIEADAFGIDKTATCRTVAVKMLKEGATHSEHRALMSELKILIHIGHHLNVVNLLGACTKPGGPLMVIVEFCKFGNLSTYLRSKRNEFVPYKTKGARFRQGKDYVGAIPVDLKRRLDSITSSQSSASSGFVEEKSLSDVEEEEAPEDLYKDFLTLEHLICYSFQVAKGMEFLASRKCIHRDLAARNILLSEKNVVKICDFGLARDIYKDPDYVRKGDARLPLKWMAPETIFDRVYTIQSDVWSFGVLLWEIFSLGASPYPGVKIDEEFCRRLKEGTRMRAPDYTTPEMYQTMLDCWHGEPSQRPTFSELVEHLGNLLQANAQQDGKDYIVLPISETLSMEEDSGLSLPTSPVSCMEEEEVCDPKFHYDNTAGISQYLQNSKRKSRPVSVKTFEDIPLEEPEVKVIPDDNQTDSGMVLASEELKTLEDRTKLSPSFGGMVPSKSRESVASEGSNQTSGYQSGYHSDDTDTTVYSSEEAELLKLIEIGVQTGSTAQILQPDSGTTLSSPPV

| SMILES | target or system | test | test system | conditions | scale | quantity | value |
| --- | --- | --- | --- | --- | --- | --- | --- |
| CC(C)[C@@H]1NC(=O)[C@@H](CCCCN)NC(=O)[C@H]([C@@H](C)O)NC(=O)[C@@H](CCCCN)NC(=O)[C@H](Cc2c[nH]c3ccccc23)NC(=O)[C@@H](C)NC(=O)[C@@H](C(C)C)NC(=O)[C@@H](C)NC(=O)[C@H](Cc2c[nH]c3ccccc23)NC(=O)[C@@H](Cc2c[nH]c3ccccc23)NC1=O | Acanthamoeba castellanii | – | – | trophozoites | – | IC90 | > 16 µg/mL |
| CCNC(=O)N1CCN(CCCC(c2ccc(F)cc2)c2ccc(F)cc2)CC1 | Plasmodium falciparum | – | GB4 | – | – | IC50 | 1000 nM |
| CC[C@H](C)[C@H](NC(=O)[C@H](C)NC(=O)[C@H](CCCCN)NC(=O)[C@H](CC(C)C)NC(=O)[C@H](C)NC(=O)[C@@H](NC(=O)[C@H](Cc1c[nH]cn1)NC(=O)[C@H](CC(C)C)NC(=O)[C@@H](NC(=O)[C@@H](NC(=O)[C@H](CCCCN)NC(=O)[C@H](C)NC(=O)[C@H](C)NC(=O)[C@H](CO)NC(=O)[C@H](CCCCN)NC(=O)[C@H](Cc1ccccc1)NC(=O)[C@@H](NC(=O)[C@H](CCCCN)NC(=O)[C@H](CC(C)C)NC(=O)[C@H](Cc1ccccc1)NC(=O)[C@H](CO)NC(=O)[C@H](CCCCN)NC(=O)[C@H](Cc1c[nH]c2ccccc12)NC(=O)[C@H](CCCCN)NC(C)=O)[C@@H](C)O)[C@@H](C)O)C(C)C)[C@@H](C)O)C(=O)N[C@@H](CO)C(=O)N[C@@H](CO)C(N)=O | Streptococcus pyogenes | – | ATCC 13813 | 1 strain | – | MIC50 | 16 µg/mL (≈ 5.45 µM) |
| C[C@@H](O)[C@@H]1NC(=O)[C@H](Cc2ccccc2)NC(=O)[C@@H](Cc2ccccc2)NC(=O)[C@H]([C@@H](C)O)NC(=O)[C@@H](CCCN)NC(=O)[C@H](CCCNC(=N)N)NC(=O)[C@@H](CCCN)NC1=O | Naegleria fowleri | – | – | trophozoites | – | IC90 | > 16 µg/mL |
| O=C(O)C1=CC(=C(c2ccc(O)c(C(=O)O)c2)c2ccc(O)c(C(=O)O)c2)C=CC1=O | Plasmodium falciparum | – | D10 | – | – | IC50 | 10000 nM |
| NCCCC[C@@H]1NC(=O)[C@@H](CCCCN)NC(=O)[C@H](CO)NC(=O)[C@H](Cc2c[nH]c3ccccc23)NC(=O)[C@@H](Cc2c[nH]c3ccccc23)NC(=O)[C@H](Cc2ccccc2)NC(=O)[C@@H](CCCCN)NC1=O | Acanthamoeba castellanii | – | – | trophozoites | – | IC90 | > 16 µg/mL |
| COC(=O)c1cccc(C#CCCOCCCCCCNC[C@H](O)c2cc(Cl)c(N)c(Cl)c2)c1 | Plasmodium falciparum | parasite growth, SYBR Green | 3D7 wild type | 72 h | – | EC50 | 1630 ± 74 nM |
| CCN(CC)[C@@H]1CCc2c(F)ccc(O)c2C1 | Plasmodium falciparum | – | GB4 | – | – | IC50 | 316 nM |
| CC(C)C[C@@H]1NC(=O)CNC(=O)[C@@H](Cc2ccccc2)NC(=O)[C@H](CCCCN)NC(=O)[C@@H](CCCN)NC(=O)[C@@H](C(C)C)NC1=O | Acanthamoeba castellanii | – | – | trophozoites | – | IC90 | > 16 µg/mL |
| O=C(Nc1cccc(CN2CCN(C(=O)c3cccc(Cl)c3)CC2)c1)c1cccs1.O=C(O)C(F)(F)F | Plasmodium falciparum | parasite growth, SYBR Green | – | 72 h | baseline: 3D7-E182D over 3D7 | EC50 ratio | 4.7 |
| NCCCC[C@@H]1NC(=O)[C@@H](CCCN)NC(=O)[C@@H](Cc2ccccc2)NC(=O)[C@H](Cc2ccccc2)NC(=O)CNC1=O | Naegleria fowleri | – | – | trophozoites | – | IC90 | > 16 µg/mL |
| O=C1N=c2cc(Cl)c(Cl)cc2=NC1=O | Plasmodium falciparum | – | W2 | – | – | IC50 | 3160 nM |
| O=C(c1ccc(Cl)cc1)N1CCN2C(=O)N(OC(=O)N3CCOc4ccccc43)C(=O)C2C1 (stereo not shown) | BCHE | MS-based ABPP | SW-620 conditioned medium | 10 µM, 1 h, 37 °C | baseline: compound over DMSO, lower = more inhibition | median protein ratio | 1.25 |
| COc1ccc(-n2ccnc2SCC(=O)Nc2cc(C)ccc2C)c(OC)c1 | Plasmodium falciparum | parasite growth, SYBR Green | 3D7 DHODH E182D | 72 h | – | EC50 | 653 ± 74 nM |
| CC[C@H](C)[C@@H]1NC(=O)[C@@H]2CCCN2C(=O)[C@H](CC(C)C)NC(=O)[C@H](CC(C)C)NC(=O)CNC(=O)[C@@H](NC(=O)[C@@H](NC(=O)[C@H](CC(=O)O)NC(=O)CNC(=O)[C@@H](NC(=O)[C@H](C)NC(=O)CNC(=O)[C@H](CCCCN)NC(=O)[C@H](CC(C)C)NC(=O)[C@H](CC(C)C)NC(=O)[C@H](CCCCN)NC(=O)CNC(=O)[C@@H](NC(=O)[C@@H](N)CC(C)C)C(C)C)C(C)C)C(C)C)CSSC[C@@H](C(=O)O)NC1=O | – | RNA-seq, refers to: Runx3 | mouse, traumatic brain injury model, frontal cortex and hippocampus | dose not given | baseline: TBI alone | log2 fold change | -2.68 |
| CC1(N2CCC(n3c([C@@H]4CCCNC4)nc4ccccc43)CC2)CCCCCCC1 | BCHE | inhibitor, fluorometric | – | – | – | IC50 | 11000 ± 11500 nM |

| SMILES | target or system | test | test system | conditions | scale | quantity | value |
| --- | --- | --- | --- | --- | --- | --- | --- |
| CC(C)[C@@H]1NC(=O)[C@@H](CC(N)=O)NC(=O)[C@H](Cc2ccccc2)NC(=O)[C@@H](CCCN)NC(=O)[C@H](CCCN)NC(=O)[C@H]([C@@H](C)O)NC(=O)[C@@H](C(C)C)NC(=O)[C@H](C(C)C)NC(=O)[C@@H]([C@H](C)O)NC(=O)[C@@H](C(C)C)NC1=O | Acanthamoeba castellanii | – | – | trophozoites | – | IC90 | > 16 µg/mL |
| CNC(=O)c1cc(Cl)cc(C)c1NC(=O)c1cc(Br)nn1-c1ncccc1Cl | Spodoptera litura | leaf-dip | third instar larvae | 6.25 ppm, 24 h | – | mortality | 10% |
| O=C1NCc2c1c1c3ccccc3[nH]c1c1[nH]c3ccccc3c21 | BCHE | inhibitor, fluorometric | – | – | – | IC50 | 10600 ± 4320 nM |
| CC1(C(=O)O)C2CCC(O2)C1(C)C(=O)O (stereo not shown) | Plasmodium falciparum | – | D10 | – | – | IC50 | 2000 nM |
| C[C@H]1[C@@H](O)O[C@@H]2O[C@@]3(C)CC[C@H]4[C@H](C)CC[C@@H]1[C@@]24OO3 | Plasmodium falciparum | parasite growth | Dd2 | – | – | EC50 | 2.28 ± 0.4 nM |
| CC(C)C[C@H](NC(=O)C[C@H](O)[C@H](CC(C)C)NC(=O)[C@H](Cc1c[nH]cn1)NC(=O)CNC(=O)[C@@H](NC(=O)[C@H](C)NC(=O)[C@H](Cc1c[nH]c2ccccc12)NC(=O)[C@H](CCC(N)=O)NC(=O)[C@@H](Cc1ccccc1)NC(=O)CCNC(=O)CCSc1nnc(NCCC(=O)NCCC(=O)NCCCC[C@H](NC(=O)N[C@@H](CCC(=O)O)C(=O)O)C(=O)O)c2c1CCC1C(CC2)C1COC(=O)NCCNC(=O)CC[C@H](C(=O)O)N1CCN(CC(=O)O)CCN(CC(=O)O)CC1)C(C)C)C(N)=O (stereo partly shown) [gallium-68 labelled] | – | – | athymic NMRI nude mouse, intestine | intravenous, 533 pmol, 2 h | – | tissue uptake | 0.24 %ID/g |
| CCN(CC)CCOCCOC(=O)C1(c2ccccc2)CCCC1 | Plasmodium falciparum | – | W2 | – | – | IC50 | 631 nM |
| CO[C@H]1C[C@@H]2CC[C@@H](C)[C@@](O)(O2)C(=O)C(=O)N2CCCC[C@H]2C(=O)O[C@H]([C@H](C)C[C@@H]2CC[C@@H](OC(=O)NCCOCCOCCOCCOCCOCCOCCOCCOCCC(=O)N3CCc4cc(Cn5nc(-c6ccc7oc(N)nc7c6)c6c(N)ncnc65)ccc4C3)[C@H](OC)C2)C[C@@H](O)[C@H](C)/C=C(\C)[C@@H](O)[C@@H](OC)C(=O)[C@H](C)C[C@H](C)/C=C/C=C/C=C/1C | – | phase 1 dose escalation, refers to: rash | advanced solid tumour patients | intravenous, 6 mg weekly, any grade | – | TRAE incidence | 33.3% |
| CC(C)[C@@H]1NC(=O)[C@@H](CCCN)NC(=O)[C@H]([C@@H](C)O)NC(=O)[C@H](Cc2ccccc2)NC(=O)[C@@H](Cc2ccccc2)NC(=O)[C@H](Cc2ccccc2)NC(=O)[C@@H](CCCN)NC1=O | Naegleria fowleri | – | – | trophozoites | – | IC90 | > 16 µg/mL |
| CCCCN(C)CC#Cc1ccc2[nH]c(C)c(Cl)c(=O)c2c1 | Plasmodium falciparum | parasite growth, SYBR Green | – | 72 h | baseline: 3D7-E182D over 3D7 | EC50 ratio | 2.2 |
| COc1ccc(N2C(=O)N(c3c(C)cccc3Cl)Cc3cnc(Nc4ccc(C5CCN(C)CC5)cc4OC)nc32)nc1 | KDR (Homo sapiens, UniProt P35968) | kinase activity | – | 0.5 µM | – | inhibition | 35% |
| CN(C)CCCC1(c2ccc(F)cc2)OCc2cc(C#N)ccc21 (stereo not shown) | Plasmodium falciparum | – | W2 | – | – | IC50 | 2000 nM |
| C[C@H]1CN(c2n[nH]c3nc(N[C@H]4CC[C@H](NS(=O)(=O)CCC(F)(F)F)CC4)ncc23)CCO1 | MAPK11 (Homo sapiens, UniProt Q15759) | competitor, Kinobeads competition | HEK293, K562, placenta extract | 0.032 µM | baseline: vehicle | relative abundance | 0.89 |
| Nc1ncnc2c1ncn2[C@@H]1O[C@@H]2COP(=O)(O)O[C@H]3[C@@H](O)[C@H](n4cnc5c(=O)[nH]cnc54)O[C@@H]3COP(=O)(O)O[C@H]2[C@H]1O | HFF-1 | RNA sequencing, refers to: Signaling by Interleukins | – | upregulated pathway | baseline: Zika virus alone | pathway fold enrichment | 3.81 |
| O=C(O)C[C@H](NC(=O)[C@H](CC(=O)O)NC(=O)[C@H](CC(=O)O)NC(=O)[C@H](CC(=O)O)NC(=O)[C@H](CC(=O)O)NC(=O)[C@H](CC(=O)O)NC(=O)[C@H](CC(=O)O)NC(=O)[C@H](CC(=O)O)NC(=O)[C@H](CC(=O)O)NC(=O)[C@H](CC(=O)O)NC(=O)[C@H](CC(=O)O)NC(=O)[C@H](CCCCNC(=O)c1ccc(C(=O)NCCOCCOB2BBBBBB3BBBB3B2)cc1)NC(=O)CN1CCN(CC(=O)O)CCN(CC(=O)O)CCN(CC(=O)O)CC1)C(=O)O [gallium-67 labelled] | – | – | ddY male mice, liver | intravenous, 37 kBq, 3 h | – | tissue uptake | 0.13 %ID/g |
